Published values collected from several papers.
Compare with care: the assays were run in different laboratories. “And” joins repeats or separate records; there may be more than shown. Numbers after ± are the reported error.

SMILES | target or system | test | test system | setting | scale | measurement | value
O=C([O-])CN1CCN(CC(=O)[O-])CCN(C(CCC(=O)NC(Cc2c[nH]c3ccc(O)cc23)C(=O)NCCc2c[nH]c3ccc(O)cc23)C(=O)O)CCN(CC(=O)[O-])CC1.[Gd+3] (stereo not shown) | – | ICP-MS | mouse, blood | iv, 0.1 mmol/kg | – | fast-phase half-life | 1.2 min
NC(=O)/C=C/c1cccc(S(=O)(=O)Nc2ccccc2)c1 | – | – | human, mild liver dysfunction, plasma | intravenous, 400 mg/m^2 belinostat, cycle 1 day -7, geometric mean | reference: metabolite over belinostat | Cmax metabolic ratio | 0.0642
CN(C)CCSC(=S)N1CCN(C(=O)/C=C/c2coc3ccccc3c2=O)CC1 | tomato spotted wilt virus | viral infection, half-leaf method | Nicotiana glutinosa | 500 µg/mL | – | inactivation effect | 71.6 ± 7.9%
O=C(CCc1ccc(CNC(C(=O)OC2CCCC2)C2CCCCC2)cn1)NO (stereo not shown) | – | – | human, plasma | oral, 20 mg once daily, median | reference: day 7 over day 1 | accumulation ratio Cmax | 0.9
NS(=O)(=O)NCC(F)(F)c1ccccc1F | – | – | mouse, plasma | 5 mg/kg | – | oral bioavailability | ~100%
O=C(O[C@@H]1Cc2c(O)cc(O)cc2O[C@@H]1c1cc(O)c(O)c(O)c1)c1cc(O)c(O)c(O)c1 | – | sulfation, substrate | human small intestinal cytosol | 10 min, pH 7.4 | – | Km | 0.82 ± 0.17 µM
C=CC(=O)Nc1cc(Nc2nccc(-c3cn(C)c4ccccc34)n2)c(OCC(F)(F)F)nc1N(C)CCN(C)C | – | LC-MS | human liver microsomes | 3 µM, 60 min, together with: quercetin 20 µM | reference: no inhibitor | remaining parent compound | 92%
CCC(=O)N(C)c1ccc(Cl)c(Cl)c1 | CHO-WBL | – | – | 0.13 mg/mL, 3 h, without S9 activation | – | cells with multiple aberrations | 0%
O=C([O-])CN1CCN(CC(=O)[O-])CCN(CC(=O)NCC2CCC(C(=O)NC(Cc3ccc4ccccc4c3)C(=O)NCCCCC(NC(=O)NC(CCC(=O)O)C(=O)O)C(=O)O)CC2)CCN(CC(=O)[O-])CC1.[44Sc+3] (stereo not shown) | – | PET/CT dosimetry, OLINDA/EXM | human, kidneys | – | – | organ absorbed dose | 0.293 mSv/MBq and 0.18 mSv/MBq and 0.488 mSv/MBq
CCCC[C@H](NC(=O)CNC(=O)CNC(=O)CN1CCN(CC(=O)O)CCN(CC(=O)O)CCN(CC(=O)O)CC1)C(=O)N[C@H]1CC(=O)NCCCC[C@@H](C(N)=O)NC(=O)[C@H](Cc2c[nH]c3ccccc23)NC(=O)[C@H](CCCNC(=N)N)NC(=O)[C@@H](Cc2ccccc2)NC(=O)[C@H](Cc2c[nH]cn2)NC1=O [lutetium-177 labelled] | – | – | C57 mouse, female, pancreas | intravenous, 0.037 MBq, 24 h | – | tissue uptake | 0.2 ± 0.11 %ID/g
C/C=C/CNC(=N)NCCCCCCCCN1CCCc2ccccc2COc2ccccc2CNC(=N)NC1=O | – | – | PAMPA | 500 µM, 5 h, pH 7.4 | – | Papp | < 0.01 ×10⁻⁶ cm/s
CN1CCC[C@]1(C)/C=C/S(=O)(=O)NC(=O)Nc1c2c(cc3c1CCC3)CCC2 | – | – | human, plasma | oral, 12.5 mg twice daily, day 14, multiple ascending dose | – | Cmax after second dose | 1800 ng/mL
COc1ccc(C2CC(c3ccc(C)cc3)=Nc3ccccc3S2)cc1OC (stereo not shown) | – | – | Wistar rat, STZ-induced diabetes | oral, 10 mg/kg once daily, day 28 | – | body weight | 177 ± 4.98 g
[64Cu+2].c1cnc(CNCc2ccc(CN3CCCN4CCNCCCN(CC4)CC3)cc2)nc1 | CXCR4 | – | NOD/SCID mouse, U87 and U87-stb-CXCR4 xenografts, lungs | iv, 30 min, ex vivo | – | tissue uptake | 10.7 ± 1.06 %ID/g
CC(C)(Sc1cc[n+]([O-])cc1-c1ccc(C#N)c2ccccc12)C(=O)OC1OC(C(=O)O)C(O)C(O)C1O (stereo not shown) | – | – | plasma | oral, 15 mg, normal renal function, fasted | – | AUC(0-inf) | 250 ng·h/mL
Cc1ccc(-c2ccc(-c3cc4sccc4o3)cn2)nc1 | – | – | MeOH | together with: quinine bisulfate reference | – | fluorescence quantum yield | 0.65
NC[C@@H](C(=O)Nc1ccc(-c2cn[nH]c2)cc1)c1ccccc1 | – | – | New Zealand White rabbits, plasma | topical, 0.1 % one drop, 2 h | – | peak plasma concentration | 3 ng/mL
CCCCCCCCCCCCCCCC(=O)N[C@@H](CCCCN)C(=O)N[C@@H](CCCCN)C(=O)N[C@@H](CO)C(=O)N[C@@H](CCCNC(=N)N)C(=O)N[C@@H](C)C(=O)N[C@@H](CC(C)C)C(=O)N[C@@H](Cc1ccccc1)C(N)=O | – | – | cynomolgus monkey, female | 30 mg/kg, day 1 | – | prothrombin time | 11.7 ± 0.3 s
CC1=C(/C=C/C(=O)N2CCN(C(N)=O)CC2)C(C)(C)CCC1 | – | – | female mice, plasma | oral, 40 mg/kg | – | Cmax | 9.32 nmol/g

SMILES | target or system | test | test system | setting | scale | measurement | value
CCc1c2c(nc3ccc(O)cc13)-c1cc3c(c(=O)n1C2)COC(=O)[C@]3(O)CC | – | – | human patients, plasma | intravenous, 133 mg/m^2 of parent drug | – | Cmax | 310 ng/mL
N=C(N)NCCC[C@@H]1NC(=O)[C@H](Cc2c[nH]c3ccccc23)NC(=O)[C@@H](CC2CCCCC2)NC(=O)[C@@H]2CCCN2C(=O)[C@@H](NC(=O)CCc2ccccc2)CCCNC1=O | – | – | C57BL/6J mice, plasma | oral, 1 mg/kg, two-compartment model | – | elimination rate constant | 0.000581 s⁻¹
[64Cu+2].c1ccc(CNCc2ccc(CN3CCCN4CCNCCCN(CC4)CC3)cc2)nc1 | CXCR4 | – | NOD/SCID mouse, U87 and U87-stb-CXCR4 xenografts, pancreas | iv, 120 min, ex vivo | – | tissue uptake | 1.49 ± 0.05 %ID/g
CCCC[C@@H]1NC(=O)[C@@H](NC(=O)[C@H](CCC(=O)O)NC(=O)CNC(=O)CN2CCN(CC(=O)O)CCN(CC(=O)O)CCN(CC(=O)O)CC2)CCCCNC(=O)C[C@@H](C(N)=O)NC(=O)[C@H](C(C)C)NC(=O)[C@@H]2CCCN2C(=O)[C@H](CCCNC(=N)N)NC(=O)CNC(=O)[C@H](Cc2c[nH]c3ccccc23)NC(=O)[C@H](CCCNC(=N)N)NC(=O)[C@@H](Cc2ccccc2)NC(=O)[C@H](Cc2c[nH]cn2)NC(=O)[C@H](CCC(=O)O)NC1=O [gallium-67 labelled] | – | – | C57 mice with B16/F1 melanoma, kidneys | intravenous, 0.037 MBq, 0.5 h | – | tissue uptake | 23.9 ± 7.15 %ID/g
CN(Cc1ccc(F)cc1)Cc1cc(=O)oc2cc(O)ccc12 | – | – | HepG2 cell medium | 0.5 mM, 60 min | – | remaining intact compound | > 99%
O=C([O-])CN1CCN(CC(=O)[O-])CCN(CC(=O)NC[C@H]2CC[C@H](C(=O)N[C@H](Cc3cnc4ccccc4c3)C(=O)NCCCC[C@H](NC(=O)N[C@@H](CCC(=O)O)C(=O)O)C(=O)O)CC2)CCN(CC(=O)[O-])CC1.[64Cu+2] | – | PET/CT dosimetry OLINDA/EXM | healthy volunteers, small intestine | up to 24 h post-injection | – | absorbed dose | 0.031 mGy/MBq
COc1ccc2occ(/C=C/C(=O)N3CCN(C(=S)SCCCN(C)C)CC3)c(=O)c2c1 | tomato spotted wilt virus | viral infection, half-leaf method | Nicotiana glutinosa | 500 µg/mL | – | curative effect | 62.5 ± 7.4%
CC(C)c1cnc(-c2cc(Cl)ccc2F)cc1Nc1ccncc1C(=O)NC(CO)CO | – | refers to: hypotension | human patients | oral, dose not given, grade 3 | – | patients with related SAE | 2.4%
CN1C(=O)[C@@H](Cc2ccc(O)cc2)NC(=O)CNC(=O)[C@H](Cc2ccc3ccccc3c2)NC(=O)[C@H](CCCNC(=N)N)NC(=O)[C@H]1CCCNC(=O)c1ccc(CNC(=O)CN2CCN(CC(=O)O)CCN(CC(=O)O)CCN(CC(=O)O)CC2)cc1 [gallium-68 labelled] | – | extrapolated to adult male | C57BL/6 mice, spleen | – | – | absorbed dose coefficient | 0.00746 mGy/MBq
CC(=O)N[C@H](C(=O)N[C@H](C(=O)N[C@@H](CCCNC(=N)N)C(=O)N1Cc2ccccc2C[C@H]1C(=O)N[C@@H](Cc1ccccc1)C(N)=O)C1CCCCC1)C(C)C | human PBMC | Bio-Plex multiplex, refers to: Eotaxin | – | 500 µg/mL, 24 h | – | cytokine level | < 1.6 pg/mL
CC1(C)C(=CC=C(C=CC2=[N+](CCC[N+](C)(C)C)c3ccc(S(=O)(=O)[O-])cc3C2(C)C)Oc2ccc(CCC(=O)[O-])cc2)N(CCC[N+](C)(C)C)c2ccc(S(=O)(=O)[O-])cc21 | – | – | 100% serum | pH 7.4 | – | absorbance maximum | 653 nm
CCCC[C@H](NC(=O)CNC(=O)CNC(=O)CN1CCN(CC(=O)O)CCN(CC(=O)O)CCN(CC(=O)O)CC1)C(=O)N[C@H]1CC(=O)NCCCC[C@@H](C(N)=O)NC(=O)[C@H](Cc2c[nH]c3ccccc23)NC(=O)[C@H](CCCNC(=N)N)NC(=O)[C@@H](Cc2ccccc2)NC(=O)[C@H](Cc2c[nH]cn2)NC1=O [gallium-67 labelled] | – | – | C57 mice, female, B16/F1 melanoma, tumour over blood | intravenous, 0.037 MBq, 0.5 h | – | tumour to tissue uptake ratio | 8.1
O=c1c2cc([N+](=O)[O-])ccc2n(CCO)n1Cc1ccccc1 | – | resazurin | peritoneal macrophages, BALB/c mice | 48 h, 10% FBS | – | CC50 | 15.9 ± 9.2 µM
Cn1c(=O)oc2ccc(-c3ccc(CC(C#N)NC(=O)C4CNCCCO4)c(F)c3)cc21 (stereo not shown) | – | refers to: skin exfoliation | human volunteers | oral, dose not given | – | treatment-related adverse event incidence | 3.3%
NC12CNCCNCC(NCc3ccc(CNC(=O)CCCC(=O)NCc4ccc(-c5nncnn5)cc4)cc3)(CNCCNC1)CNCCNC2.[64Cu+2] | – | OLINDA dosimetry | osteogenic cells | pretargeting, 24-h interval | – | mean absorbed dose | 0.0897 rad/mCi
C#CCOc1ccc(/C=C2\SC(=O)N(CC(=O)NCc3ccccc3)C2=O)cc1 | – | inverse Kirkwood-Buff integrals | binary solvent mixture | concentration not given, 298.15 K, mole fraction x1 0.00 | – | correlation volume | 1020 cm³/mol
COc1ccc(C2CC(c3ccc(C)cc3)=Nc3ccccc3S2)cc1 (stereo not shown) | – | – | Wistar rat, STZ-induced diabetes | oral, 10 mg/kg once daily, day 7 | – | body weight | 189 ± 4.31 g
CC[C@H](C)[C@H](NC(=O)[C@H](Cc1ccccc1)NC(=O)[C@H](CCCCN)NC(=O)[C@H](CCCNC(=N)N)NC(=O)[C@H](Cc1ccccc1)NC(=O)[C@H](Cc1ccccc1)NC(=O)[C@H](CCCCN)NC(=O)[C@H](CO)NC(=O)[C@H](CC(C)C)NC(=O)[C@H](CCCNC(=N)N)NC(=O)[C@H](CCSC)NC(=O)[C@H](C)N)C(=O)N[C@@H](CC(C)C)C(=O)N[C@@H](CCN)C(=O)N[C@@H](CCCNC(=N)N)C(=O)N[C@@H](CCCCN)C(=O)N[C@@H](CCCCN)C(=O)O | – | circular dichroism | 20% TFE in PBS | 200 µM, pH 7.4, 25 °C | – | helicity | 11.9%

Repeated from above:
SMILES | target or system | test | test system | setting | scale | measurement | value
O=C([O-])CN1CCN(CC(=O)[O-])CCN(C(CCC(=O)NC(Cc2c[nH]c3ccc(O)cc23)C(=O)NCCc2c[nH]c3ccc(O)cc23)C(=O)O)CCN(CC(=O)[O-])CC1.[Gd+3] (stereo not shown) | – | ICP-MS | mouse, blood | iv, 0.1 mmol/kg | – | fast-phase half-life | 1.2 min
NC(=O)/C=C/c1cccc(S(=O)(=O)Nc2ccccc2)c1 | – | – | human, mild liver dysfunction, plasma | intravenous, 400 mg/m^2 belinostat, cycle 1 day -7, geometric mean | reference: metabolite over belinostat | Cmax metabolic ratio | 0.0642
CN(C)CCSC(=S)N1CCN(C(=O)/C=C/c2coc3ccccc3c2=O)CC1 | tomato spotted wilt virus | viral infection, half-leaf method | Nicotiana glutinosa | 500 µg/mL | – | inactivation effect | 71.6 ± 7.9%
O=C(CCc1ccc(CNC(C(=O)OC2CCCC2)C2CCCCC2)cn1)NO (stereo not shown) | – | – | human, plasma | oral, 20 mg once daily, median | reference: day 7 over day 1 | accumulation ratio Cmax | 0.9
NS(=O)(=O)NCC(F)(F)c1ccccc1F | – | – | mouse, plasma | 5 mg/kg | – | oral bioavailability | ~100%
O=C(O[C@@H]1Cc2c(O)cc(O)cc2O[C@@H]1c1cc(O)c(O)c(O)c1)c1cc(O)c(O)c(O)c1 | – | sulfation, substrate | human small intestinal cytosol | 10 min, pH 7.4 | – | Km | 0.82 ± 0.17 µM
